Experimental data pooled from the literature.
Numbered parts are unrelated; each lists some results of a single study.
Sequence of UniProt P11229 (whole entry, looked up): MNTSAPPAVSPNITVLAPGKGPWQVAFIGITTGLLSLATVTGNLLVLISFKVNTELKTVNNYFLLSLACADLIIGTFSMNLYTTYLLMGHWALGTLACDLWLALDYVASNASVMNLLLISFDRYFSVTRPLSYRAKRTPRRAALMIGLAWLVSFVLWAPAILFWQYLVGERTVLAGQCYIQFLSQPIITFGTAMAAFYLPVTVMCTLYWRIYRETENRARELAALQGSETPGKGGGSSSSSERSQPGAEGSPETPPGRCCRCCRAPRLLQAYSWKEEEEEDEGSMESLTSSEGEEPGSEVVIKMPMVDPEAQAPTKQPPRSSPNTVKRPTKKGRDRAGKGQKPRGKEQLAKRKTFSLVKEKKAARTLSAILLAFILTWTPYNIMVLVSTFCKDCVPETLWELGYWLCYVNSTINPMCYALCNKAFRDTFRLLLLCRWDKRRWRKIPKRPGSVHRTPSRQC

Sample 1 — observed: RNA clamping; method: fluorescence polarization; concentration: concentration not given; with: FAM-labelled poly r(AG)8 RNA; reading: higher = more clamping
Target: Eukaryotic initiation factor 4A-I (EIF4A1, Homo sapiens, UniProt P60842)
Sequence of UniProt P60842 (whole entry, looked up): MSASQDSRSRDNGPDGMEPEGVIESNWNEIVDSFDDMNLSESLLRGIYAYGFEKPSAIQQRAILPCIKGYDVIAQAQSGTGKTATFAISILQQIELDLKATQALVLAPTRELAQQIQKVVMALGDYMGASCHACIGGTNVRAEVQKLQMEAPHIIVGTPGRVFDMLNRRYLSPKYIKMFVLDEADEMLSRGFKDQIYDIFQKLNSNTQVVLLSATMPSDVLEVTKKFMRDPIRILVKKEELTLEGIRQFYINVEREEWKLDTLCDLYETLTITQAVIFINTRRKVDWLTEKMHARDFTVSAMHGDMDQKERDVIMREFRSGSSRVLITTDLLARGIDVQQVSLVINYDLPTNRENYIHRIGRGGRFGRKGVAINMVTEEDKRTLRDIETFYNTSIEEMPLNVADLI
| SMILES | fluorescence polarization change [mP] |
| --- | --- |
| COC(=O)[C@@H]1[C@@H](c2ccccc2)[C@]2(c3ccc(OC)cc3)Oc3cc(OC)cc(OC)c3[C@@]23OC(c2ccc(F)cc2)=N[C@@]13O | 18.4 |
| COC(=O)[C@@H]1[C@@H](c2ccccc2)[C@]2(c3ccc(OC)cc3)Oc3cc(OC)cc(OC)c3[C@@]23OC(c2ccccc2)=N[C@@]13O | -7.7 |
| COC(=O)[C@H]1C(=O)[C@@]2(O)c3c(OC)cc(OC)cc3O[C@@]2(c2ccc(OC)cc2)[C@@H]1c1ccccc1 | 52.4 |
| COc1cc(OC)c2c(c1)O[C@@]1(c3ccc(Br)cc3)[C@H](c3ccccc3)[C@@H](C(=O)N(C)C)[C@@H](O)[C@@]21O | 87.4 |
| COc1ccc([C@@]23Oc4cc(OC)cc(OC)c4[C@]2(O)c2nc(-c4ccccc4Cl)[nH]c(=O)c2[C@H]3c2ccccc2)cc1 | 32.4 |
| COc1ccc([C@@]23Oc4cc(OC)cc(OC)c4[C@]2(O)[C@H](O)[C@H](C(=O)N(C)OC)[C@H]3c2ccccc2)cc1 | 90.8 |
| CCOC(=O)[C@H]1[C@@H](c2ccccc2)[C@]2(c3ccc(Br)cc3)Nc3cc(OC)cc(OC)c3[C@@]1(O)[C@H]2O | 14.8 |
| COC(=O)Cc1nc2c(c(=O)[nH]1)[C@@H](c1ccccc1)[C@]1(c3ccc(OC)cc3)Oc3cc(OC)cc(OC)c3[C@]21O | 32.6 |

Sample 2 — observed: enzyme activity; action: inhibitor; concentration: 77 µM; reference: untreated
Target: DNA polymerase theta, ATPase domain (POLQ, Homo sapiens, UniProt O75417)
Sequence of UniProt O75417 (whole entry, unmodified, looked up): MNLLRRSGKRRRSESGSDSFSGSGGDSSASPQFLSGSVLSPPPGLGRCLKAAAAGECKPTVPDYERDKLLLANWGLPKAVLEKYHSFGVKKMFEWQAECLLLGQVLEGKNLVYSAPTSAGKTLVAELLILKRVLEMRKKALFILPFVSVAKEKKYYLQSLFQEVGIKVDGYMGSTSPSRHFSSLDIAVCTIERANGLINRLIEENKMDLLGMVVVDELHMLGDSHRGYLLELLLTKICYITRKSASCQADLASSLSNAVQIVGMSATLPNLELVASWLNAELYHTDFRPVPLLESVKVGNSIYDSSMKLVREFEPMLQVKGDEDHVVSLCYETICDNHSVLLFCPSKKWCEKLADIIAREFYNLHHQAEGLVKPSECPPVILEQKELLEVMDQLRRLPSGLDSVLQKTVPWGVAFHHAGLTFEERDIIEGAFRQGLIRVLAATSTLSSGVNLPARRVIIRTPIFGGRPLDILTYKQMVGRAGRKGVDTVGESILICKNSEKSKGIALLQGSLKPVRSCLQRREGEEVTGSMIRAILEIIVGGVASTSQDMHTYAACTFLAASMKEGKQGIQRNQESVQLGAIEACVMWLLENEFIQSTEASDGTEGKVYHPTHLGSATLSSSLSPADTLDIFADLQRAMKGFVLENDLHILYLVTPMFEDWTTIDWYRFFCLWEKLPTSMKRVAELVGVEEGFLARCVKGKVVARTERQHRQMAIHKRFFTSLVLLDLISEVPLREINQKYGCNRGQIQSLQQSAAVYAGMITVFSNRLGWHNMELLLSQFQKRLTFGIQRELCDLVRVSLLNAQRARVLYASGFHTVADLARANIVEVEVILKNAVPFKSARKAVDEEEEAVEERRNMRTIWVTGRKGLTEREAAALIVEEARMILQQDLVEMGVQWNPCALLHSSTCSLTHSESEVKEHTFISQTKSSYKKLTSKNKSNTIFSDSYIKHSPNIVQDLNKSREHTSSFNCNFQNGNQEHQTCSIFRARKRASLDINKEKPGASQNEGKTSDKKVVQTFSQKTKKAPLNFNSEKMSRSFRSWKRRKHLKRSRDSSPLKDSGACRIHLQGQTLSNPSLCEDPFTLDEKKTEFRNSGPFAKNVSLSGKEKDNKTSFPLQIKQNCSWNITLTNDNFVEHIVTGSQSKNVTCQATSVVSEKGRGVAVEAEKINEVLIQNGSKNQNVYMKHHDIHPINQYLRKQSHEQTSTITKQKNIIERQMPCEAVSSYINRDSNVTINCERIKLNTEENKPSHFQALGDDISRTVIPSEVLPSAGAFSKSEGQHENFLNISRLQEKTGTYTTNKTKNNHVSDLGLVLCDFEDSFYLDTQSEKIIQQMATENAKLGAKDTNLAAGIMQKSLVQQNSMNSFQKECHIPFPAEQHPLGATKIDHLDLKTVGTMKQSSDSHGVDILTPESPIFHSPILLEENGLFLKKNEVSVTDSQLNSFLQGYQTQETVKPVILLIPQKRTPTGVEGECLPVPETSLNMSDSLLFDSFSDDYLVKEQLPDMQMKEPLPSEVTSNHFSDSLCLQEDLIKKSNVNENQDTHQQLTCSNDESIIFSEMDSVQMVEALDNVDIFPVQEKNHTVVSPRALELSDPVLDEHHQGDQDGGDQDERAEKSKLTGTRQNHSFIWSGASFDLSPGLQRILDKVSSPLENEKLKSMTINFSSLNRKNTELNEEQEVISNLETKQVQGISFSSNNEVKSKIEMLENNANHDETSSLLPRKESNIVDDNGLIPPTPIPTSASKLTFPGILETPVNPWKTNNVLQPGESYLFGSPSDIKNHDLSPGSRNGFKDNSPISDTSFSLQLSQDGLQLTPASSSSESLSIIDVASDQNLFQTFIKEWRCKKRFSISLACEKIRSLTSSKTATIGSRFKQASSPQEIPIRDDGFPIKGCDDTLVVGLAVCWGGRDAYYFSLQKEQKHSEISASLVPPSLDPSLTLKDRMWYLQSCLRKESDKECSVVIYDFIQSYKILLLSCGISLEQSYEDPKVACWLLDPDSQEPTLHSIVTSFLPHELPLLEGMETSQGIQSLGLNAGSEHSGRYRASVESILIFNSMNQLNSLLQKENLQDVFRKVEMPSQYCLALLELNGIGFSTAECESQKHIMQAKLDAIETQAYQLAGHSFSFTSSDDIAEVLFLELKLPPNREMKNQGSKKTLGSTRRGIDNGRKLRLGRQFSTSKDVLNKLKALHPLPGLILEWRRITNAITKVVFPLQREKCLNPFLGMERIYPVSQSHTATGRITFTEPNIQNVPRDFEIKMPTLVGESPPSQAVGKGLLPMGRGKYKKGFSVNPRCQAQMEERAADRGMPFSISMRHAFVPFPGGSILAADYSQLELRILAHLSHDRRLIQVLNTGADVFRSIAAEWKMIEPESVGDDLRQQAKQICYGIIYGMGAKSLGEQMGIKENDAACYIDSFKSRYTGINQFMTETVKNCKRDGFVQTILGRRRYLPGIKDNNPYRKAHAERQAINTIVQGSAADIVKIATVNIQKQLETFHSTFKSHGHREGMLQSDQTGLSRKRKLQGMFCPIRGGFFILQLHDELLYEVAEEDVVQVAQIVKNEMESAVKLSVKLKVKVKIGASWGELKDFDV
| Structure (SMILES) | remaining activity [%] |
| --- | --- |
| OC1CCCCC1N1CCC(c2ccccc2)CC1 (stereo not drawn) | 102 |
| C[N+](C)(C)CCOC(=O)CBr | 99 |
| C[N+](C)(C)CC#CCN1CCCC1=O | 94.7 |
| CC1=C2[C@H]3OC(=O)[C@@H](C)[C@@H]3CC[C@@]2(C)C=CC1=O | 103 |
| COC1=C[C@@H]2[C@@H]3Cc4ccc(OC)c(O)c4[C@]2(CCN3C)CC1=O | 93.6 |

Sample 3 — observed: binding; method: radioligand binding; concentration: 10 µM
SMILES: CC(=O)C1=C(C)N(c2cccc(C(F)(F)F)c2)C(=O)N[C@@H]1c1ccc(C#N)nc1
| target | inhibition |
| --- | --- |
| CHRM1 (Homo sapiens, UniProt P11229) | -4.65% |
| OPRD1 (Homo sapiens, UniProt P41143) | -6.02% |
| HTR2A (Homo sapiens, UniProt P28223) | -0.427% |
| HTR2C (Homo sapiens, UniProt P28335) | -2.88% |

Sample 4 — action: degrader; method: HiBiT; cells: HEK293; time: 6 h
Compound: O=C1CCC(N2Cc3c(ccc4c3OCC43CCN(Cc4ccccc4)CC3)C2=O)C(=O)N1 (stereo not drawn)
DNA-binding protein Ikaros: DNA-binding protein Ikaros (Homo sapiens, UniProt Q13422)
Sequence of UniProt Q13422 (whole entry, looked up): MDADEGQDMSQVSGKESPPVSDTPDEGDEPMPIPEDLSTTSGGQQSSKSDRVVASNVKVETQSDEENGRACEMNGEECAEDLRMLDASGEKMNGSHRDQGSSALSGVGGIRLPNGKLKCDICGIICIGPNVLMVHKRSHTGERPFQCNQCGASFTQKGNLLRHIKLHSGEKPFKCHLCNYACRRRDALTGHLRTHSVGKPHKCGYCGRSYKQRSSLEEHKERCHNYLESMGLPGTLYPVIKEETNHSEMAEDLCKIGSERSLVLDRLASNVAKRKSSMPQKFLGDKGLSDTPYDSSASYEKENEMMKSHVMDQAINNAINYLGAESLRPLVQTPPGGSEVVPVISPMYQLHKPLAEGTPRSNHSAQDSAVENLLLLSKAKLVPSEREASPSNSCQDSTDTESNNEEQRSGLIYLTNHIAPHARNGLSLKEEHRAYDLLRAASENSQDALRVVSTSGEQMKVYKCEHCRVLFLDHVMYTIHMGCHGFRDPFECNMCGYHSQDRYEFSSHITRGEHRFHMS
SALL4: Sal-like protein 4 (SALL4, Homo sapiens, UniProt Q9UJQ4)
CSNK1A1: Casein kinase I isoform alpha (CSNK1A1, Homo sapiens, UniProt P48729)
Sequence of UniProt P48729 (whole entry, looked up): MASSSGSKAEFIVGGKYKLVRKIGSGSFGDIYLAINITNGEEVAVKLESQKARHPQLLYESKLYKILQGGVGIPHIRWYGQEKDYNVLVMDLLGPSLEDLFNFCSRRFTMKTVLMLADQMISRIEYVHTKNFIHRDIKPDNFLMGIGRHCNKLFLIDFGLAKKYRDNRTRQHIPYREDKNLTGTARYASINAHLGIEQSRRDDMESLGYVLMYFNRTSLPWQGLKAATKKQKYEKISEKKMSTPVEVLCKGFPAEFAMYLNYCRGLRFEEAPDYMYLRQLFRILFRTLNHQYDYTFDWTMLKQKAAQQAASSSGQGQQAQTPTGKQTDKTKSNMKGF
GSPT1: Eukaryotic peptide chain release factor GTP-binding subunit ERF3A (GSPT1, Homo sapiens, UniProt P15170)
Sequence of UniProt P15170 (whole entry, looked up): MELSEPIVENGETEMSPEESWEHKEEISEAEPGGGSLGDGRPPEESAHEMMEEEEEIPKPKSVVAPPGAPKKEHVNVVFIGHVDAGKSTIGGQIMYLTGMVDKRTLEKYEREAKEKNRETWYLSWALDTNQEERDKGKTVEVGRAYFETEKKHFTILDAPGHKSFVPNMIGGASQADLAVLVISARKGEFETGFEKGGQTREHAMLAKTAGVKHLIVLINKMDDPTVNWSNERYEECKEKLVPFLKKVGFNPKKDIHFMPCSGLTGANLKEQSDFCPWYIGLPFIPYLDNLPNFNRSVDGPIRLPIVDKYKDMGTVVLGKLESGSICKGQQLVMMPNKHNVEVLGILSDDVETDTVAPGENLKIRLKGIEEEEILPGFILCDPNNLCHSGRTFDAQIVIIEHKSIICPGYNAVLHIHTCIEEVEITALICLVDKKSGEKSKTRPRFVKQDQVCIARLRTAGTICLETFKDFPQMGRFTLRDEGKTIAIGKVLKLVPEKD
| target | concentration | remaining protein [%] |
| --- | --- | --- |
| DNA-binding protein Ikaros | 1.111 µM | 106 |
| SALL4 | 0.004572 µM | 90.6 |
| SALL4 | 0.1235 µM | 80.9 |
| DNA-binding protein Ikaros | 0.01372 µM | 100 |
| DNA-binding protein Ikaros | 0.0001694 µM | 101 |
| Zinc finger protein Aiolos (Homo sapiens, UniProt Q9UKT9) | 0.04115 µM | 106 |
| CSNK1A1 | 0.01372 µM | 110 |
| GSPT1 | 0.0005081 µM | 101 |
| DNA-binding protein Ikaros | 0.0005081 µM | 103 |
| GSPT1 | 1.111 µM | 110 |
| GSPT1 | 0.3704 µM | 111 |
| GSPT1 | 0.1235 µM | 107 |
| CSNK1A1 | 3.333 µM | 104 |

For quick reference, copied from above (sample 2):
| Structure (SMILES) | remaining activity [%] |
| --- | --- |
| C[N+](C)(C)CC#CCN1CCCC1=O | 94.7 |
| CC1=C2[C@H]3OC(=O)[C@@H](C)[C@@H]3CC[C@@]2(C)C=CC1=O | 103 |
